Experimental data of several laboratories.
Each numbered part is a random draw from the data of one study; scales do not carry over between parts.

Sample 1
Target: PABPC1L2, full length, GST fusion (mouse, UniProt A0ABA7IW68)
Technique: RNAcompete
Form: RNA
Matrix: in vitro
Concentration: 20 nM
Setting: 7-mer, probes averaged, single round
Baseline: mean of 7-mers
Direction: higher = stronger binding
Residues (chain): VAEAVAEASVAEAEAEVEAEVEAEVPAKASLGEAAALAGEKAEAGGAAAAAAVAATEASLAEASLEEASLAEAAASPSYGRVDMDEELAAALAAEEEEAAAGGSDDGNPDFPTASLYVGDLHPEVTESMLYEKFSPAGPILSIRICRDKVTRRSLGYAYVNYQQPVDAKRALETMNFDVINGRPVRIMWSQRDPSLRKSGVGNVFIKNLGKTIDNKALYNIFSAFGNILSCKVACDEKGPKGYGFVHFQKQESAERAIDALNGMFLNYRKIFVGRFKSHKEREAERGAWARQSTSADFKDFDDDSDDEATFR
With `GCAUCUC` the 7-mer Z-score was -0.266.
`GAAAAGG` gave a 7-mer Z-score of 1.4.
The 7-mer Z-score of `CCACUGU` is reported as -0.313.
`GUUAGCG` has a 7-mer Z-score of -0.155.
`CUCAUUA` has a 7-mer Z-score of -0.139.
With `UGGGACU` the 7-mer Z-score was 0.283.
With `UAUUCAG` the 7-mer Z-score was -0.244.
The 7-mer Z-score of `AUUUACU` is reported as 0.0732.
`AUGGACC` has a 7-mer Z-score of 0.046.
With `UGGUGAG` the 7-mer Z-score was -0.139.
The 7-mer Z-score of `AUCAAAA` is reported as 4.62.
`UAUACCG` has a 7-mer Z-score of -0.24.
With `CUAAACG` the 7-mer Z-score was 0.169.
`UGCGUCU` has a 7-mer Z-score of -0.333.
The 7-mer Z-score of `UGUCACG` is reported as -0.197.
For `CUAUAAA`, the 7-mer Z-score was 2.73.

Sample 2
Target: Sal-like protein 4, full length isoform A (SALL4, Homo sapiens, UniProt Q9UJQ4, residues 1-1053)
Sequence of UniProt Q9UJQ4 (whole entry, looked up): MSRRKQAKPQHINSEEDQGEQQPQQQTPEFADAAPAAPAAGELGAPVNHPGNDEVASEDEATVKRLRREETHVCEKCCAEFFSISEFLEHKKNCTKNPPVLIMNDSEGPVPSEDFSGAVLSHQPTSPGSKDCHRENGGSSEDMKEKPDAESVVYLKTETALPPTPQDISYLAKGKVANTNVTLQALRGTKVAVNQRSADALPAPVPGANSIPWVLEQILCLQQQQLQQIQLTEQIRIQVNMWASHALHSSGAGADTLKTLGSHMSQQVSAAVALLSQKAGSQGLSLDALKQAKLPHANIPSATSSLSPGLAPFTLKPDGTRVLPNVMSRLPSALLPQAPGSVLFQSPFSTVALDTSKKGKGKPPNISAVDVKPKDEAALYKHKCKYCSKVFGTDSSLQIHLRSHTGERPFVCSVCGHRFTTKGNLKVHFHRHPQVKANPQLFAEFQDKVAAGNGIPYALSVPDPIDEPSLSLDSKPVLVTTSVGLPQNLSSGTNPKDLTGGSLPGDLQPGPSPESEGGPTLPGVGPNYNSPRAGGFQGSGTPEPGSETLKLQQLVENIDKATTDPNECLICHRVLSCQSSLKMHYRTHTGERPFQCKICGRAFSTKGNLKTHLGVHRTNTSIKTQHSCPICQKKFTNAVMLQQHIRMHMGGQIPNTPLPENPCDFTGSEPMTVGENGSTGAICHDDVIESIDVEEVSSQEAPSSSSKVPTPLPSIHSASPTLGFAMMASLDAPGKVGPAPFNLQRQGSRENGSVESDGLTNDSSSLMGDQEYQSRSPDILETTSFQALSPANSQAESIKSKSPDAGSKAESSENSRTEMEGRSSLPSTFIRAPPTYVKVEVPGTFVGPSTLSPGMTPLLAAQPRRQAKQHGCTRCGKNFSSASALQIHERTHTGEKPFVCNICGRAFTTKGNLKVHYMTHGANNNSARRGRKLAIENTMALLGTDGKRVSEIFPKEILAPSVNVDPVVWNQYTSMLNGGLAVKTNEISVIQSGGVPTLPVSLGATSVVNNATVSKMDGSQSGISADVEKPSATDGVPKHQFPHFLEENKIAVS
Technique: universal PBM
Form: double-stranded DNA, one strand shown
Matrix: in vitro
Concentration: 600 nM
Setting: 8-mer, flanks averaged, mean of replicates
Direction: higher = stronger binding
`ATTGTAGC` gave an E-score of 0.068.
With `CAAATTCG` the E-score was 0.0628.
With `AGGTGGTA` the E-score was 0.0077.
For `CCTAAACG`, the E-score was -0.127.
For `AATAAGCC`, the E-score was 0.193.
`TAAGTGCA` has an E-score of 0.111.
With `TGATCCAA` the E-score was 0.171.
`AGGCCATA` has an E-score of -0.00551.
For `GGGCAAGA`, the E-score was -0.0602.
`GGAGTTGA` has an E-score of 0.0166.
The E-score of `CTTTGGAC` is reported as -0.0206.
`CCCCGCGC` gave an E-score of -0.296.
With `ATCTGGAG` the E-score was -0.0197.
With `TTCGAAAA` the E-score was 0.225.
`CACTGGCG` has an E-score of -0.116.
For `ACTGCTCA`, the E-score was -0.00469.
`CCGATGAC` gave an E-score of -0.121.
`ACTTAGTA` has an E-score of 0.176.
`GTTACGAA` has an E-score of 0.179.
`CTATGGGA` has an E-score of 0.00581.
`AATAATCA` gave an E-score of 0.355.
With `AAAACTCC` the E-score was -0.0566.
For `CAGGTTAC`, the E-score was -0.0603.

Sample 3
Target: RING finger protein unkempt homolog, zinc fingers 1-6, GST-SBP tag (UNK, Homo sapiens, UniProt Q9C0B0, residues 30-357)
Technique: RNA Bind-n-Seq
Form: RNA
Matrix: in vitro
Concentration: not given
Setting: RNA with constant flanks, human and mouse sites, ends assumed
Baseline: input RNA pool
Direction: higher = stronger binding
Target sequence (chain): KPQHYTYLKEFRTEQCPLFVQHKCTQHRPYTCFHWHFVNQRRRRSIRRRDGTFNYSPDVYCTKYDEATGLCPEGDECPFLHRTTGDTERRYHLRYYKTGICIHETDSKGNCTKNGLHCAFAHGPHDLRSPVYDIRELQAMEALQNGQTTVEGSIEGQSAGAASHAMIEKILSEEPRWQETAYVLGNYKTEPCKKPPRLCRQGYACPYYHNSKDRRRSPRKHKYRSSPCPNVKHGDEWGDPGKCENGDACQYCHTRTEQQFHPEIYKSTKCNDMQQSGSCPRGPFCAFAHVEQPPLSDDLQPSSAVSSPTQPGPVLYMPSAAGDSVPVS
`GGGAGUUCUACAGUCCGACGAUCAGUAGAGAGAUAACAAAAGCUGCUCAGAGUCUCAAUGAACUUGAUUAUCUUUCUCAAGGAAUAGAUCUUUCUGGAAUAGAAGUAAUAGAGAAUGAUCUACUCUUUAUUGCAAGAGCUCGACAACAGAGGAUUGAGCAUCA` gave a bound/input enrichment of 0.53 ratio.
For `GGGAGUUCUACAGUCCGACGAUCACUGCUGGUUUAACAAUGCAUGCAUCAAUUCUUGCAUAUAUGUUUAAUUUGGUUGAAGAAGGAAAAAUAAGUACAUCAUUAAAUCCUGGAAAUCCAGUUAACAACCAAAUCUUUCUUCAGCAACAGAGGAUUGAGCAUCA`, the bound/input enrichment was 0.353 ratio.
The bound/input enrichment of `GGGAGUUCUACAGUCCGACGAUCGACUCUGUCUCAAAAAAAAAAAAAAGGAAAACUCUGUGAUGGACAUUUGUUUAGUAAAUCCCUUCAGUAUUUAUCCCUCCUUUCCCCACAGCAGCUUUCUUUCCUGUCAACUAGAAAGGACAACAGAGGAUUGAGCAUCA` is reported as 1.27 ratio.
For `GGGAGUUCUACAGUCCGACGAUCCUUUACCAGAAAGACUUCCUGCGCAUUGCAGGUCUGUGUCAGGACACUGCUCAGAGUUACACCUUUGGAUGUGGCCAUGAACUGGAUGAGGAAGGCCUCUAUUGCAACAGUUGCUUGGCCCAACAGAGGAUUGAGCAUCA`, the bound/input enrichment was 0.0887 ratio.
`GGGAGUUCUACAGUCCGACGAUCAGUGAGACGGAAUGGAAUCUCCUGCAGAAAGAGGUACAUAAUGCUGGAAAUAAGCUUGGUAGACGUUGUGAUAUGUGUUCCAAUUAUGAAAAACAGUUACAAGGAAUUCAGAUUCAGGAACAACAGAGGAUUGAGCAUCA` gave a bound/input enrichment of 0.258 ratio.
For `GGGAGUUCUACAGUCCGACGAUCCUUUGUAUAUAUUUUUUUGUGUACAUGCACACAUCUCGAAAUCCAUUUCCGUGUUUAAUGUUAGUUGUUUAUGUGUUAGUAUUCCUGUGUCUACUGUUUUGUUGUUGUUAAUAUGGGUAACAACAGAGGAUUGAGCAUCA`, the bound/input enrichment was 5.78 ratio.
`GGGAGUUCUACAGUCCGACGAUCUUAUAUCUUUCUGUCAUUCGAAAGAUACCAGCCUUGACUGAAAAUGACCCUGAAACUUGGAUAGUUUGUAAUUUUUCUGUGGAUCAUGACAGUGCUCCUCUAAACAACCGAUGUGUCCGUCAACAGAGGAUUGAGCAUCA` gave a bound/input enrichment of 0.299 ratio.
`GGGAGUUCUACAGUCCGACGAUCGUUUUUUUUCUCUAUGAAUAAAUGUCACUUUUUGAGGCAAAAAGAAGGAACCGUGAACAUUUUAGACACCCUUUUCUUUGGGGUAGGCUCUGCCCCAGGCGCCGUCUCCUUCCCCCCCCACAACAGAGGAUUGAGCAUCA` has a bound/input enrichment of 1.28 ratio.

Sample 4
Target: RNA binding protein fox-1 homolog 2, RRM domain, GST-SBP tag (RBFOX2, Homo sapiens, UniProt O43251-10, residues 100-194)
Technique: RNA Bind-n-Seq
Form: RNA
Matrix: in vitro
Concentration: 365 nM
Setting: natural RNA segment, single round, ends assumed
Baseline: no-protein control
Direction: higher = stronger binding
Residues (chain): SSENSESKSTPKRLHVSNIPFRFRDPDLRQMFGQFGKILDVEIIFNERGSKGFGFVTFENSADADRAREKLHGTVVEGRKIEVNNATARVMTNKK
`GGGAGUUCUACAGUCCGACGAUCAUAUAAUGGGUGUGCAGCCAUAGCGAAGCUUUGAGAAGCCCCAAGCCUCAACUGUAACCUGCAGCAAACAGAGAAAUAACAUUCCUGGCAGGAAGAUACAAGUCUUUUUAUGGAAUUCUCGGGUGCCAA`: “RBNS enrichment (R)” 0.349.
`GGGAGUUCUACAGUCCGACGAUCGUGACUCAGCAAGGCAGUGUCAGAGCUGGGACUGGGCGUAGGCCUUUGUCCUCAUCCCCAGCACUGGCCUCCCUGUGGAAGAUGAACAUAUCCCAGCCACCUGUGUACAGUGGAAUUCUCGGGUGCCAA`: “RBNS enrichment (R)” 0.466.
Under “RBNS enrichment (R)”, `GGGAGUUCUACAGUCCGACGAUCCACAGAGGUUUCAAGUGGAAAGCCAUUCAUCUUAAAAGCUGAACAGAAAAAUUAAAAAAAAAAAAAACACAUUACAAUCUGGCCUUUUAGAAAAUGAAGCAGUAGAAACAUGGAAUUCUCGGGUGCCAA` is recorded as 0.652.
For `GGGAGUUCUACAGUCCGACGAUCGAUCUUCUGCCUCCGCCAGCCUGUGAGCUGUUUCCAUGUUUUCAAAGCACAGCAGCAGUCGCUUCUGGGGAGUGCCAGUUAAAGUCAUGCAUCAGACCCUGCCAGACGUGUGGAAUUCUCGGGUGCCAA`, “RBNS enrichment (R)” read 0.831.
Under “RBNS enrichment (R)”, `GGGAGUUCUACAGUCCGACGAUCCUAGUGUUGGUAGGUCCUAGACGUGGUUCCCUCCAGCCUCCCCAAAAUCAACCCUGGUGUUGAGAGAACGUCCUUCUGUCCAUCGUGGGUAACAGCCUUGGGGAGGGUGCUGGAAUUCUCGGGUGCCAA` is recorded as 0.253.
`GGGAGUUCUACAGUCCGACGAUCAAAGAGACACACAAAGAUGGGCUGUGAGCCCCUAGAAAGGGACUAGUUAGUUGCCUUUGAUAGAAUUCCUUGCACCUGCCAUUGUUGGUUUGAUGAACACGAUUAGGUACUGGAAUUCUCGGGUGCCAA` — result for “RBNS enrichment (R)”: 1.15.
For `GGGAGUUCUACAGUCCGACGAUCGAAGCCAGUUUGACAUAGAGAGAUGUCAGAUUGAUUUGAAAGGUGUGCAGCCUGAUUUAAAACCAAACCCUGAACCCUUUUAAAGAACAAUAAAACAUAUUUUACACGCUUGGAAUUCUCGGGUGCCAA`, “RBNS enrichment (R)” read 0.537.
`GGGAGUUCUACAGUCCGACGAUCUCAAAGUACAUGGCCUGAGUUCUCUUCUGCCUCCCACAGCAAAGUUGAGGCUGCACUGUAGAGACACUAGCAAUGGCUUGGGACAGACAGGGUCCAAGUCUAGCCAGCCUUGGAAUUCUCGGGUGCCAA` — result for “RBNS enrichment (R)”: 0.311.
